Measured values gathered from unrelated publications.
Each numbered part is a random draw from the data of one study; scales do not carry over between parts.

Block 1 — technique: aptamer microarray, sandwich; molecule type: DNA with 2'F-ANA; medium: in vitro; concentration: 200 nM; added: Cy3 exosite-II aptamer, 400 nM; reading: higher = stronger binding; sequence: GGTTGGTGTGGTTGG
Target: Prothrombin, mature alpha-thrombin (F2, Homo sapiens, UniProt P00734)
Notes: whole 15-mer aptamer, many near background
Modification | mean fluorescence intensity [a.u.]
2'F-ANA at 1 3 5 8 9 14 15 | 45.3
2'F-ANA at 1 3 6 8 9 10 13 14 15 | 82.2
2'F-ANA at 1 4 6 8 9 10 11 12 13 14 15 | 50.1
2'F-ANA at 2 4 12 13 14 | 130
2'F-ANA at 1 2 10 11 12 15 | 65.7
2'F-ANA at 3 6 7 8 9 10 | 517
2'F-ANA at 3 4 5 9 10 12 14 | 46.6
2'F-ANA at 2 4 8 10 11 12 | 124
2'F-ANA at 4 6 8 10 12 13 15 | 90.6
2'F-ANA at 1 7 8 9 10 11 13 14 15 | 54.5
2'F-ANA at 1 2 3 4 7 9 12 14 | 72.5
2'F-ANA at 2 3 4 5 7 8 9 11 12 14 15 | 55.4
2'F-ANA at 1 3 6 7 8 10 | 86.4
2'F-ANA at 2 3 4 5 6 9 13 14 | 48.7
2'F-ANA at 2 4 5 6 7 9 15 | 63.8
2'F-ANA at 1 4 5 6 7 10 13 14 15 | 45.5
2'F-ANA at 1 2 4 5 6 8 9 10 11 13 15 | 50.9
2'F-ANA at 1 3 4 7 10 11 13 15 | 56.7
2'F-ANA at 1 4 6 7 8 9 13 15 | 82.4
2'F-ANA at 2 3 4 5 11 | 80.3
2'F-ANA at 3 4 5 6 8 9 11 12 13 14 15 | 53.1
2'F-ANA at 2 3 4 5 6 7 11 14 15 | 69.6
2'F-ANA at 1 3 4 8 10 11 13 14 15 | 66
2'F-ANA at 1 3 6 10 14 15 | 60.7
2'F-ANA at 3 4 5 6 8 13 15 | 63.6

Block 2 — technique: protein-binding microarray; molecule type: double-stranded DNA, one strand shown; medium: in vitro; concentration: 2200 nM top; notes: 60-bp whole probe; added: salmon DNA 0.4 mg/ml; baseline: random background probes; reading: higher = stronger binding; constant ends, left off below: GCCTAGCAC … GTCTTGATTCGCTTGACGCTGCTG
Target: Interferon regulatory factor 7, full length, phosphomimetic (IRF7, Homo sapiens, UniProt Q92985, residues 1-503, S471D/S472D/S475D/S476D/S477D/S483D/S484D/S487D)
Construct (chain): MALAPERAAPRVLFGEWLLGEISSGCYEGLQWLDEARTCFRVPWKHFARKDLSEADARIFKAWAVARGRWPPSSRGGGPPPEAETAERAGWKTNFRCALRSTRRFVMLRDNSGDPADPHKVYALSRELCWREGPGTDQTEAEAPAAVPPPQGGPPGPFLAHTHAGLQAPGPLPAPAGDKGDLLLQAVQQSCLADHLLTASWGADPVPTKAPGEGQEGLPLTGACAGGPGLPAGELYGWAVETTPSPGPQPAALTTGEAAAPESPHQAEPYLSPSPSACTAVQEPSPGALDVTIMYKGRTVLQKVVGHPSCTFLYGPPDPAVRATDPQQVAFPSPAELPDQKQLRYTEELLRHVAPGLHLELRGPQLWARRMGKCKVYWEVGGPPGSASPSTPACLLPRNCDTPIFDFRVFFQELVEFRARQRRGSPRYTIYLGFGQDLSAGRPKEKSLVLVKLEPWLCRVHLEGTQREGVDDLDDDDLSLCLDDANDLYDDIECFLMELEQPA
Sequence | fitted relative affinity [z-score]
TTAGGTCTCTGTATCGGTTAGTGCTAG | 0.66
TTAGGACTGGACTATCGGTTTGTGCTA | 0.734
GACGGTATGCTACTGCTGACGTGCTAG | 0.0726
AACGGTATCCTTCTCCTGACGTGCTAG | 1.09
GAGTCTTCCCTTTTAAGTTCGTGCTAG | 1.86
TTTGGTTTCCTTTTCCTTTAGTGCTAG | 8.71
GACGAACTGAGTTTGGAGACGTGCTAG | -0.276
TCACCTCTGCTGCTGGCACTGTGCTAG | 0.716
TTAGGTCTCGGGATCGGTTAGTGCTAG | 0.239
GACGGTATCCTTTTCCTGCCGTGCTAG | 1.24
TTAGGACTGGACTATCCGTTAGTGCTA | -0.333
GACGGTATCGGGTTTCGGGCCGTGCTA | 0.661
GACGGACTGCTTATCTTGACGTGCTAG | 0.188
GACGAAATGAGTTTCGAGACGTGCTAG | 2.2
GACGCTCTCCTTTTCCTGACGTGCTAG | 2.19
TCACTCTTCTTTTGCTAACTGTGCTAG | 1.94
GACGGACTGCACTATCGGGACGTGCTA | -0.304
GACGGACTGGACTATAGGGACGTGCTA | -0.999
TTAGATTTCAGATTCGATTAGTGCTAG | 2.53
TTAGGTATCGGACTGGATTAGTGCTAG | 0.0319
GTCGGTTTCCTTCTCCTGACGTGCTAG | 4.27
TCAATTTTCTGAATGTCACTGTGCTAG | 2.66
TCATTTTCCCCCCTCACACTGTGCTAG | 3.06
TCATCTCTGCTTGTATCACTGTGCTAG | 2.01
TTAGATTTCCGGTTTCGATTAGTGCTA | 6.67

Block 3 — technique: RNA Bind-n-Seq; molecule type: RNA; medium: in vitro; concentration: 365 nM; baseline: no-protein control; reading: higher = stronger binding
Target: RNA binding protein fox-1 homolog 2, RRM domain, GST-SBP tag (RBFOX2, Homo sapiens, UniProt O43251-10, residues 100-194)
Notes: natural RNA segment, single round, ends assumed
Target sequence (chain): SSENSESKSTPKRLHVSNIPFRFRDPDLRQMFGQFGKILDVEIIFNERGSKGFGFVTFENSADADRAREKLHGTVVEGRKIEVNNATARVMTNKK
Sequence | RBNS enrichment (R)
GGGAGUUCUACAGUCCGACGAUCUUUGGCCACAAAACACCAAAGAAUUGUAGGCAGUGGCCCCUAUUGAGAAGUUUUCCGGUAGAGUUGGAAAUCAGUUGUGAAUACAUUCUUUGCUAGUUGGAGUGCUUGUUUGGAAUUCUCGGGUGCCAA | 0.854
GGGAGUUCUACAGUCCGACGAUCGGUGUGUUAAAUACCAAGAUUAUUGACGUAUAUACUAAUCAGCUCCAAAUCACAUACAGUUUAAUCUUUAUUUUUUUAAUUUAAAGAAAUCAUGUUUAAAAUGAUAAAACUGGAAUUCUCGGGUGCCAA | 0.46
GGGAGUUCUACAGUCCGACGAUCAGUGGUAUGUAAAUGUUGACUCGGAUCACAAUCAUGUAGCAGAGGGCACUGGGCCUGUUGCCUGCCAGUCAUGGACACCCAUGUGAAAAAUCCUGAUUUCCAGCUCAUGGUGGAAUUCUCGGGUGCCAA | 3.07
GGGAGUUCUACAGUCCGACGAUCGCCUCCUGCUGACCCCUGACAGCGUCCCGUGGCAUUUCUUUCAUGUCUGCAUAUUGCAUAGCCUUGUCCUCCUGUGUGCCUGAGCUCCUCCCUUUUCAAUAAGAUUAUUAUGGAAUUCUCGGGUGCCAA | 1.02
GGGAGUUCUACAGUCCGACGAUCUCUGCCACAAACAGAAUUCGAGACAUACUUAAUUUUGAAUUUCUCCUUGCCACGUUAAUAAAGCCAAAAGCAGCGGGUGCUAUUCGUGGCAACACACUUCACUGAACCCAUGGAAUUCUCGGGUGCCAA | 0.666
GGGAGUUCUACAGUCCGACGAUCAAAGUGACUUCUUACAGCUAGUGCAUUGUGCUCUUUCCAAGUUCAGCAGCAGUUCUAUCAGUGGUGCCACUGAAACUGGGUAUAUUUAUGAUUUCUUUCAGCGUUAAAAAUGGAAUUCUCGGGUGCCAA | 0.381
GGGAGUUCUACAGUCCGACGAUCCAAAAGGCAUUAUAACUCUGACUCAAAUACAAGGUACAGAAGAUAAGCAUCUUUGAGGAAACUCCUACUUCAGUUCUUUUGUUAUGAUGAAGACAUUUGUGAGAGAGGAGUGGAAUUCUCGGGUGCCAA | 0.863
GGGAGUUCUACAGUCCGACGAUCUGUUUCCAUCAUAUUGCAGUGUAUGUGGGAUUUUCUGUAAAAUGGGUGUAAUUUUUCCCUUAAAAAGGUGUGUGACAACAAGAGAAGUUGCCUGCAUGCCGGUUUAAAUUUGGAAUUCUCGGGUGCCAA | 0.408
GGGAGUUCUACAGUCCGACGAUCUGAGGCCUGGUUCUGGAUCUGGGACCAUUGCUGGAUGACUUGAAUCUUAGUGAAGUCCUUUGUUGGGCUAUGGGCUAGCAUGUGGCUCACUGCUGUAAUGCUAGUAUUUCUGGAAUUCUCGGGUGCCAA | 0.756
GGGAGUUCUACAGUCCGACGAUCGGUGGAGCCUCAAACUAAAACCUUCUUUUAUGGAAAGAAGGCUGUGGCCAAAAGCCCCGUAUCAAACUGCCAUUUCUUCCGGUUUCUGUGGACCUUGUGGCCAGGUGCUCUGGAAUUCUCGGGUGCCAA | 0.263
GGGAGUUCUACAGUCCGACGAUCUGGGUGGUAGUUCCAAAGACACUACUAAUGUGCAGAGAGCGCUCCGGCCUCUGGUGCUGGCCACUACUGUUUCCUGUCAGUCAGAUCUGUGAUAAUGGUUGGAAGGAUGUUGGAAUUCUCGGGUGCCAA | 0.397
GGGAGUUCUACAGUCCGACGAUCCGAUUCACAGAGGUUUCAGGGGGACCCAAAUCACUGCUGGUUUUCAAUUUUUUUUUAACAAUACAUUUUUGUGGUCAGUUCCAACAGCACUGUCCGUACUUUUAAAACUGUGGAAUUCUCGGGUGCCAA | 0.516

Block 4 — technique: protein binding microarray; molecule type: double-stranded DNA, one strand shown; medium: in vitro; concentration: not given; baseline: not given; reading: higher = stronger binding
Target: Histone acetyltransferase KAT6A, winged helix 1, GST fusion (KAT6A, Homo sapiens, UniProt Q92794, residues 1-85)
Notes: 8-mer, flanks averaged, mean of 2 arrays, mostly near background
Residues (chain): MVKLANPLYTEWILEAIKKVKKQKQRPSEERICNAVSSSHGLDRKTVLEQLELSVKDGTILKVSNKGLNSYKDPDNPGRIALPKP
Sequence | E-score
TAGCCATA | -0.0598
AGGAACGA | -0.0728
AGCCCTGG | -0.169
AGCCACCA | -0.222
AAGTCTCG | -0.0191
AATCGTGT | -0.0577
CAAAGCGC | 0.345
CATTCTCC | -0.108
CGCAATTA | 0.297
CTGCCATC | -0.136
GTGAACTA | -0.0872
GCAGCTTA | -0.0188
GCACTACC | 0.0764
CGGTAGAG | 0.122
CAGCCGCA | 0.0434
ACTTAAAT | -0.24
CATCACAG | -0.0248
CCGTAATC | 0.26
CTATCCAA | -0.0874
ATTGATGA | -0.088
ATCTCTCG | -0.0594

A few entries again (block 1):
Modification | mean fluorescence intensity [a.u.]
2'F-ANA at 4 6 8 10 12 13 15 | 90.6
2'F-ANA at 1 7 8 9 10 11 13 14 15 | 54.5
2'F-ANA at 1 2 3 4 7 9 12 14 | 72.5
2'F-ANA at 2 3 4 5 7 8 9 11 12 14 15 | 55.4
2'F-ANA at 1 3 6 7 8 10 | 86.4
2'F-ANA at 2 3 4 5 6 9 13 14 | 48.7
2'F-ANA at 2 4 5 6 7 9 15 | 63.8
2'F-ANA at 1 4 5 6 7 10 13 14 15 | 45.5
2'F-ANA at 1 2 4 5 6 8 9 10 11 13 15 | 50.9
2'F-ANA at 1 3 4 7 10 11 13 15 | 56.7
2'F-ANA at 1 4 6 7 8 9 13 15 | 82.4
2'F-ANA at 2 3 4 5 11 | 80.3
2'F-ANA at 3 4 5 6 8 9 11 12 13 14 15 | 53.1
2'F-ANA at 2 3 4 5 6 7 11 14 15 | 69.6
